{"data": "Results from different studies", "note": "A part holds a random share of what one study measured. Changes are numbered by the printed parent chain."}
{"data": "Sample 1", "target": "Histone acetyltransferase KAT6A, both winged helices, GST fusion (KAT6A, Homo sapiens, UniProt Q92794, residues 1-181)", "method": "protein binding microarray", "molecule type": "double-stranded DNA, one strand shown", "medium": "in vitro", "tested at": "not given", "setting": "8-mer, flanks averaged, mean of 2 arrays, mostly near background", "reference": "not given", "reading": "higher = stronger binding", "Construct (chain)": "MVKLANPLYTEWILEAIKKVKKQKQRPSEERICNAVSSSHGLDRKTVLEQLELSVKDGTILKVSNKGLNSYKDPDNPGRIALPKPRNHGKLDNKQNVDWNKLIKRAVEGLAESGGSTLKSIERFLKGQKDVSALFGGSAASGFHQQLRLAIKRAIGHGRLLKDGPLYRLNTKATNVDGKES"}
{"Oligonucleotide": "CACGGCCC", "E-score": 0.172}
{"Oligonucleotide": "ATCAGTGG", "E-score": -0.262}
{"Oligonucleotide": "ACGTACAC", "E-score": -0.114}
{"Oligonucleotide": "AACTGATG", "E-score": 0.0901}
{"Oligonucleotide": "CTCCCCAG", "E-score": -0.203}
{"Oligonucleotide": "AGATGTTA", "E-score": -0.0771}
{"Oligonucleotide": "ATTCCACC", "E-score": -0.145}
{"Oligonucleotide": "ATCTGGGA", "E-score": -0.155}
{"Oligonucleotide": "AACGTGAA", "E-score": 0.0133}
{"Oligonucleotide": "CACTAATA", "E-score": -0.0726}
{"data": "Sample 2", "target": "Interferon regulatory factor 5, full length, phosphomimetic (IRF5, Homo sapiens, UniProt Q13568-2, residues 1-514, S451D/S453D/S456D/S462D)", "method": "protein-binding microarray", "molecule type": "double-stranded DNA, one strand shown", "medium": "in vitro", "tested at": "940 nM top", "setting": "60-bp whole probe", "together with": "salmon DNA 0.4 mg/ml", "reference": "random background probes", "reading": "higher = stronger binding", "constant ends, left off below": "GCCTAGCAC … GTCTTGATTCGCTTGACGCTGCTG"}
{"Oligonucleotide": "ATTGCTTCCTCTTTCACTGCGTGCTAG", "fitted relative affinity [z-score]": 1.25}
{"Oligonucleotide": "TCATATTAAAATTTAATACTGTGCTAG", "fitted relative affinity [z-score]": 0.168}
{"Oligonucleotide": "GACGGTCCCGGACTGGGGACGTGCTAG", "fitted relative affinity [z-score]": -0.793}
{"Oligonucleotide": "GACGGACTGCTAATGCTGACGTGCTAG", "fitted relative affinity [z-score]": -0.734}
{"Oligonucleotide": "TGCACTCTTTACATGGGTTTGTGCTAG", "fitted relative affinity [z-score]": 0.336}
{"Oligonucleotide": "TTAGGTATCGTGTATCGGTTAGTGCTA", "fitted relative affinity [z-score]": 3.44}
{"Oligonucleotide": "GGCGGTTTCGGGACTGGGGACGTGCTA", "fitted relative affinity [z-score]": 7.04}
{"Oligonucleotide": "TCAGATTTCCATTATTGACTGTGCTAG", "fitted relative affinity [z-score]": 0.729}
{"Oligonucleotide": "GACGATCTCAGTCTCGATACGTGCTAG", "fitted relative affinity [z-score]": 3}
{"data": "Sample 3", "target": "CCND2, cyclin fold, Cln2 fusion (human)", "method": "yeast growth competition, sequencing", "medium": "yeast", "setting": "weak parent motif", "reference": "not given", "reading": "higher = stronger binding", "parent": "SLBP docking peptide (human); ARYKRKLLINDFG"}
{"Change": "A1W", "normalised enrichment score": 0.394}
{"Change": "K6T", "normalised enrichment score": 0.336}
{"Change": "L8R", "normalised enrichment score": -0.06}
{"Change": "F12M", "normalised enrichment score": -0.0112}
{"data": "Further values, each from its own experiment"}
{"Molecule": "PhoQ, residues 284 288 289 292 302 303 MLMVEA", "target": "PhoP, residues 12 14 15 18 19 LWHSL (Escherichia coli, UniProt P23836)", "test": "Sort-seq, measured: YFP reporter", "system": "E. coli", "conditions": "PhoQ-PhoP variant library, together with: 10 µM Mg2+", "how to read": "reference: high Mg2+ state, higher = stronger signaling", "measurement": "fold induction", "result": 10.7}
{"note": "Repeated from above (sample 1):"}
{"Oligonucleotide": "AGATGTTA", "E-score": -0.0771}
{"Oligonucleotide": "ATTCCACC", "E-score": -0.145}
